Measured values collected from several papers.
A part holds a random share of what one study measured. Positions count from the first letter of the parent shown.

Series 1 — target: CCND3, cyclin fold, Cln2 fusion (human); method: yeast growth competition, sequencing; sample: yeast; notes: weak parent motif; reference: not given; reading: higher = stronger binding
Starting sequence: CDKN1B docking peptide (human); PSACRNLFGPVDH
For `PSFCRNLFGPVDH [A3F]`, “normalised enrichment score” read 0.175.
`PSAMRNLFGPVDH [C4M]` — result for “normalised enrichment score”: 0.0568.
`PSACRNLFMPVDH [G9M]`: “normalised enrichment score” 0.105.
For `PSECRNLFGPVDH [A3E]`, “normalised enrichment score” read 0.188.
`PSACRNLFGPVDE [H13E]`: “normalised enrichment score” 0.096.
`PSACRNLFGPVGH [D12G]` — result for “normalised enrichment score”: 0.148.

Series 2 — method: RNA Bind-n-Seq; molecule type: RNA; sample: in vitro; concentration: 365 nM; reference: no-protein control; reading: higher = stronger binding
Target: RNA binding protein fox-1 homolog 2, RRM domain, GST-SBP tag (RBFOX2, Homo sapiens, UniProt O43251-10, residues 100-194)
Notes: natural RNA segment, single round, ends assumed
Residues (chain): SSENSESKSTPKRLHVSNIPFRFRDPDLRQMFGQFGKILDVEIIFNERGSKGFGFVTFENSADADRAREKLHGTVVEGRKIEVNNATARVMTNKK
For `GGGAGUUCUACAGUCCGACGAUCCCUGACGGGCAGCUGAGGAUUGCAGAGCCUGUCUGCCUUACGGCCAGUCGGACAGACGUCCCGCCACCCACCACCCCUCACAGGACGUCCGCUCAGCACACGCCUUGUUAUGGAAUUCUCGGGUGCCAA`, “RBNS enrichment (R)” read 0.616.
Under “RBNS enrichment (R)”, `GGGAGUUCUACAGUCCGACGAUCUUUGUAUGCGUUUGCUAAUGGUAGCUAAAUAACCAGUUUUUGUUGUAAAUGCACCAAUUCUGAAGGCACUUUAUGUACUACAUGGAGGUCAUAUCUGGUUUUGUUUUUAUUGGAAUUCUCGGGUGCCAA` is recorded as 0.634.
Under “RBNS enrichment (R)”, `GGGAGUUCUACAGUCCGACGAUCGUAAUCAACAGCUUUCACUUUAGAUUCAAUGUGAACCGCAGAGUUACUCAUGACCAAGAGUCUGGCAAACUCAUUAAUGCUGUUUAAUACUUGUUUGAUAUUUUUUCACCUGGAAUUCUCGGGUGCCAA` is recorded as 0.547.
For `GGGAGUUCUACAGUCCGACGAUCUCUGGCUUCUGCAGGGGAAAUUUCAAGGCCACUGGCGUGGACCAUCUGGGUGUCCUCAGCCCCUGUGGGGCAGCCAAGUUCCUGAUAGCACUUGUGCCUCAGCCCCUCACUGGAAUUCUCGGGUGCCAA`, “RBNS enrichment (R)” read 0.301.
`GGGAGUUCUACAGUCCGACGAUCAGUUAAAGGCCAUGCUUACAGCUUAGAAAUGAAGCCUUAAGCUGCAUCAAGUUACGAAGUGAUUAAUUUCCUUCUCAGCAAACCUCCGGGAGGUUCCAGAAUGAGUUCUUUGGAAUUCUCGGGUGCCAA`: “RBNS enrichment (R)” 0.297.
`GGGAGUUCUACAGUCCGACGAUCAUAACUACUGAAAGGGGAACCUUCGUCUUUUUAAAUGUGUUAUUUCACAUUACAAUAAUAUGUGUAGUAGUUGAAUUGUGUUAUCAAAGCAUGUCCAACUUCUGUCCAGAUGGAAUUCUCGGGUGCCAA`: “RBNS enrichment (R)” 0.311.
For `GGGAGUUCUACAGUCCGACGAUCGUUAAAGGGACGAGUCUGCCUUCCUGGCUGUGACACGGGACCCCUUUUCUACAGACCUCAUCACUGGAUUUGCCAACUAGAAUUCGAUUUCCUGUCAUAGGAAGCUCCUUUGGAAUUCUCGGGUGCCAA`, “RBNS enrichment (R)” read 0.397.
For `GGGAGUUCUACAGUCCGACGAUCCAUAUAUUUUACUGUCAGUUGUCUCAACUCUUGAAUCCAUGUGGCGUUUUCUCUGUCCUGCUGCUUCUUUUGGCCUCCUCGUUUUCCUUCUCUUUUUCGACAAUGGUAGAUGGAAUUCUCGGGUGCCAA`, “RBNS enrichment (R)” read 0.275.

Series 3 — method: DHFR PCA, deep sequencing; sample: yeast; added: (+)-ABA 0.032 µM; reference: wild-type fitted maximum; reading: higher = stronger binding
Target: ABI1, truncated, D143A, DHFR fusion (Arabidopsis thaliana)
Notes: methotrexate growth selection, single substitutions
Starting sequence: PYL1, truncated, DHFR fusion (Arabidopsis thaliana); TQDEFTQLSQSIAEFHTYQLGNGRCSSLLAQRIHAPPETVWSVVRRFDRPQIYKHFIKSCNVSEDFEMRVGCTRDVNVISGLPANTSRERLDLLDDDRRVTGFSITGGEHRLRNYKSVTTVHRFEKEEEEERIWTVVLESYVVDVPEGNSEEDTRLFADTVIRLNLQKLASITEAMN
`D144Y`: “relative binding score” 1.84%.
For `Y141N`, “relative binding score” read 0.139%.
Under “relative binding score”, `R45H` is recorded as -0.147%.
Under “relative binding score”, `D144M` is recorded as -6.36%.

Other studies, line by line
`PhoQ, residues 284 288 289 292 302 303 GASLAW` gave a fold induction of 15.8 (PhoP, residues 12 14 15 18 19 IQSYL (Escherichia coli, UniProt P23836); Sort-seq, item: YFP reporter; E. coli; PhoQ-PhoP variant library, added: 10 µM Mg2+; reference: high Mg2+ state, higher = stronger signaling).

Repeated from above (series 2):
For `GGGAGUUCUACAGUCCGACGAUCCCUGACGGGCAGCUGAGGAUUGCAGAGCCUGUCUGCCUUACGGCCAGUCGGACAGACGUCCCGCCACCCACCACCCCUCACAGGACGUCCGCUCAGCACACGCCUUGUUAUGGAAUUCUCGGGUGCCAA`, “RBNS enrichment (R)” read 0.616.
Under “RBNS enrichment (R)”, `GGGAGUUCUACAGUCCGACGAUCUUUGUAUGCGUUUGCUAAUGGUAGCUAAAUAACCAGUUUUUGUUGUAAAUGCACCAAUUCUGAAGGCACUUUAUGUACUACAUGGAGGUCAUAUCUGGUUUUGUUUUUAUUGGAAUUCUCGGGUGCCAA` is recorded as 0.634.
